{"data": "Published values collected from several papers", "CXCL8": "Interleukin-8 (CXCL8, Homo sapiens, UniProt P10145)", "G-protein coupled receptor 39": "G-protein coupled receptor 39 (Mus musculus, UniProt Q5U431)", "NPBWR1": "Neuropeptides B/W receptor type 1 (NPBWR1, Homo sapiens, UniProt P48145)", "ADGRG1": "ADGRG1 (Homo sapiens, UniProt Q9Y653)", "GPBAR1": "G-protein coupled bile acid receptor 1 (GPBAR1, Homo sapiens, UniProt Q8TDU6)", "Kir3.1/Kir3.2": "Kir3.1/Kir3.2 (Homo sapiens, UniProt P48051+P48549)", "note": "± gives the spread as reported.", "chain of UniProt Q8TDU6 (whole entry, looked up)": "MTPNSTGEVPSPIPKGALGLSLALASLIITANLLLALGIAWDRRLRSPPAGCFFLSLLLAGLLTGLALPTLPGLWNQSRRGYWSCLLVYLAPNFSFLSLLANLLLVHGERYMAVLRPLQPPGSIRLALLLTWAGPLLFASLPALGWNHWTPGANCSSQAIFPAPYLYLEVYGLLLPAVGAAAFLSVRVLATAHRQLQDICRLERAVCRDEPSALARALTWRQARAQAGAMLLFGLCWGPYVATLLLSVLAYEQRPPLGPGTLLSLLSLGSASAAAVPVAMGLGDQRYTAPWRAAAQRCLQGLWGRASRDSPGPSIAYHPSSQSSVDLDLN", "chain of UniProt Q5U431 (whole entry, looked up)": "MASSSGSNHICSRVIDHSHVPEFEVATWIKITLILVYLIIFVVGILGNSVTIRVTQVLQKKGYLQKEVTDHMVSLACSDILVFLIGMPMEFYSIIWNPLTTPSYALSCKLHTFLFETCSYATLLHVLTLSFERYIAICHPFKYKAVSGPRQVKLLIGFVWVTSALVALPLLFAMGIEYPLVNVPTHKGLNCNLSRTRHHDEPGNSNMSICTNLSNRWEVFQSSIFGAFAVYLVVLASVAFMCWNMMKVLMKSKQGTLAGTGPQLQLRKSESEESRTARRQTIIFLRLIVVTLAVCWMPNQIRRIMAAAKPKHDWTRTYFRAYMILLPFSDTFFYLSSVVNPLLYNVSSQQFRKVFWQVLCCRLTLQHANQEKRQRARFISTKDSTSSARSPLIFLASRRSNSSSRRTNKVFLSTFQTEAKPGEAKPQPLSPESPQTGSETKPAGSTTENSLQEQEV", "chain of UniProt P48145 (whole entry, looked up)": "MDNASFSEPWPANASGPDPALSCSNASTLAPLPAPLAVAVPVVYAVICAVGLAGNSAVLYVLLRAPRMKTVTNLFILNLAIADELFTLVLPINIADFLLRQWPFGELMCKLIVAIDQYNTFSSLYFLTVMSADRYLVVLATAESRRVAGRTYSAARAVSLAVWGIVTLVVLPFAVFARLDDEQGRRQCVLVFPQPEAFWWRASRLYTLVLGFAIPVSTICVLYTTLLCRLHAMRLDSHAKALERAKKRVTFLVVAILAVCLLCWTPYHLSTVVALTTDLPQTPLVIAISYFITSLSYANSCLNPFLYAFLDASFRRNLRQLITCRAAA", "chain of UniProt P10145 (whole entry, looked up)": "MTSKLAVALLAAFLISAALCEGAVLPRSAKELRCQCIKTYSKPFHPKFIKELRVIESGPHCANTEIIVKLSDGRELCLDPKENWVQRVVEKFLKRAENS", "chain of UniProt P48051 (whole entry, looked up)": "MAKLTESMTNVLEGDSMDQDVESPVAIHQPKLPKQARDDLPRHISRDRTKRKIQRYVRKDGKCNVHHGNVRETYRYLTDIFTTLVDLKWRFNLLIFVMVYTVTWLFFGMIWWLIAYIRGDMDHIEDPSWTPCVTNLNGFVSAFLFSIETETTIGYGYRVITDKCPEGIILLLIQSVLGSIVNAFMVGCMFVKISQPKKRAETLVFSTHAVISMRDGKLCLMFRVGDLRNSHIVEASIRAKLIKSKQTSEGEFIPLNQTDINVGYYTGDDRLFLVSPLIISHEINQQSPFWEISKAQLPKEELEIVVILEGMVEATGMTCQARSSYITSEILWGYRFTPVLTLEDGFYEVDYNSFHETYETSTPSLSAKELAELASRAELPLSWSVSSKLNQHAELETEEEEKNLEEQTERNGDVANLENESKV", "chain of UniProt Q9Y653 (whole entry, unmodified, looked up)": "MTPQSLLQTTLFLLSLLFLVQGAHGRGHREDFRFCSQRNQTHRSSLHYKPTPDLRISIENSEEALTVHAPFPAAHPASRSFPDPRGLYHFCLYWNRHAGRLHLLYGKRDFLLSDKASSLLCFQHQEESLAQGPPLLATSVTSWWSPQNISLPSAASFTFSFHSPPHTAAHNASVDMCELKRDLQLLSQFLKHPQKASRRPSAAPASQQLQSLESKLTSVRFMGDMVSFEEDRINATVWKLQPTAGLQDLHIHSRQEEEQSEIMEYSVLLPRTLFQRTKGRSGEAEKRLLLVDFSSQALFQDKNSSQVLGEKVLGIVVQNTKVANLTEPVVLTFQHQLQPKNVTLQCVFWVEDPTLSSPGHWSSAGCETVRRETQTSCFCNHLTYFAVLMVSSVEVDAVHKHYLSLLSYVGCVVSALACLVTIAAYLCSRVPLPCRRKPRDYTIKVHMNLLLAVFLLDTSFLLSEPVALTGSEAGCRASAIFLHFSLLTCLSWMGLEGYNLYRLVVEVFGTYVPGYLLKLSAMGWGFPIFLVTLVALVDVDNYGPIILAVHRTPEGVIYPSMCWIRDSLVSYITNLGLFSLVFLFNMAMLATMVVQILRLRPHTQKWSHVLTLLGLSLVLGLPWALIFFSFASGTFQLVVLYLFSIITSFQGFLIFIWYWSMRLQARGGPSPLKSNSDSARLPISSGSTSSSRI", "chain of UniProt P48549 (whole entry, looked up)": "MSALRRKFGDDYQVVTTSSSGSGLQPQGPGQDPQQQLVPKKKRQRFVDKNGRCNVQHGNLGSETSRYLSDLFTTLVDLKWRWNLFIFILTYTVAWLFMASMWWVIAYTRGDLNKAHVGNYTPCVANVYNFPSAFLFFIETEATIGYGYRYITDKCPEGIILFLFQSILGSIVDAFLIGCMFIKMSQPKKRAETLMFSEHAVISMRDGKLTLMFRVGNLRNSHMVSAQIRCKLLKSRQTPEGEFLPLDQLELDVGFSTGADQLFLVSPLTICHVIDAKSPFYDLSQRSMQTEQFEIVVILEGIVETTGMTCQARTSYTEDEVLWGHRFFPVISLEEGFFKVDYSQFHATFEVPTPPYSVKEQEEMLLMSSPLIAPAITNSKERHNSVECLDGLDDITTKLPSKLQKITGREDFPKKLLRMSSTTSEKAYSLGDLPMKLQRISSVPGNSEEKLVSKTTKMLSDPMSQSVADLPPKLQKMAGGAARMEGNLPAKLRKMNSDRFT", "chain of UniProt Q8TDS7 (whole entry, looked up)": "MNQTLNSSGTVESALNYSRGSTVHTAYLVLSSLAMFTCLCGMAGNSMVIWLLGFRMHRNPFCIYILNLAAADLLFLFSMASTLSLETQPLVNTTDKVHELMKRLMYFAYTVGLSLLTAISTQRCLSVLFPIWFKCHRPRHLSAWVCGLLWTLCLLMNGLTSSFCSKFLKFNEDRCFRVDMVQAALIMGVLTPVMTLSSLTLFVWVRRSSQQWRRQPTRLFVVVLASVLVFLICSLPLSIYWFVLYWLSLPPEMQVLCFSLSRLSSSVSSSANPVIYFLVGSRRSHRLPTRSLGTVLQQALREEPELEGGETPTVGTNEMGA", "chain of UniProt Q9Y2R2 (whole entry, looked up)": "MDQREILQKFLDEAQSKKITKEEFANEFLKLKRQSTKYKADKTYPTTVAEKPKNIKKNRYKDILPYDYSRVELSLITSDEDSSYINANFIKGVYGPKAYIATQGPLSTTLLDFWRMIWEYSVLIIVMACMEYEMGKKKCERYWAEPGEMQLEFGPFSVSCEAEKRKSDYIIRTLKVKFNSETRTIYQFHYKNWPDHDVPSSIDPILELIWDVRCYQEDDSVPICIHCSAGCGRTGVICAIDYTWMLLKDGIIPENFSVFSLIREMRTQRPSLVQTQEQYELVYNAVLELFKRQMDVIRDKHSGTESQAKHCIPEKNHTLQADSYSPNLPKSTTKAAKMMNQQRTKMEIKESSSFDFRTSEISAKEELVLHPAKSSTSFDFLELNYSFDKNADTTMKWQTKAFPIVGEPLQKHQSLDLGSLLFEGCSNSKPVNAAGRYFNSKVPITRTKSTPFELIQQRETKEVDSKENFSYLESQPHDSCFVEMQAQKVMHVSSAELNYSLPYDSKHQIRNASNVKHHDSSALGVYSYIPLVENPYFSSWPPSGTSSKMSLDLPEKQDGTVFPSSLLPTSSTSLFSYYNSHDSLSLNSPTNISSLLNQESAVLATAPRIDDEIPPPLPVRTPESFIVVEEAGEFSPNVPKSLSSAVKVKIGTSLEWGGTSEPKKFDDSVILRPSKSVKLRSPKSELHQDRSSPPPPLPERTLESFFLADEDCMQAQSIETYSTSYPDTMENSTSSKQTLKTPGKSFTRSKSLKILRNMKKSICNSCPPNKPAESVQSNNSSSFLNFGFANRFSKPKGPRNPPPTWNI", "chain of UniProt P08172 (whole entry, looked up)": "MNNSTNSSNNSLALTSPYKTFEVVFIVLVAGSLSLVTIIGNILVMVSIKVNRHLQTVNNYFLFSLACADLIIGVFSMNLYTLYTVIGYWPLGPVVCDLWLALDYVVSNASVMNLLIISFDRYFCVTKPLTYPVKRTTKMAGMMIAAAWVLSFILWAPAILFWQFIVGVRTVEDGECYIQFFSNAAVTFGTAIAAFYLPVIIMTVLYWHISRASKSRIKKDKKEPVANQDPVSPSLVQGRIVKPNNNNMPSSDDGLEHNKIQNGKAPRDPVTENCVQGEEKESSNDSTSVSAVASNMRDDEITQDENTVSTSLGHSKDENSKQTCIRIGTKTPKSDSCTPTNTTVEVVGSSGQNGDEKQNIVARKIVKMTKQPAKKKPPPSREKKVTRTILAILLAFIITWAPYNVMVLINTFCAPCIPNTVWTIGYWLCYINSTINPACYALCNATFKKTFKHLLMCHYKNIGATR", "chain of UniProt Q8VGS3 (whole entry, looked up)": "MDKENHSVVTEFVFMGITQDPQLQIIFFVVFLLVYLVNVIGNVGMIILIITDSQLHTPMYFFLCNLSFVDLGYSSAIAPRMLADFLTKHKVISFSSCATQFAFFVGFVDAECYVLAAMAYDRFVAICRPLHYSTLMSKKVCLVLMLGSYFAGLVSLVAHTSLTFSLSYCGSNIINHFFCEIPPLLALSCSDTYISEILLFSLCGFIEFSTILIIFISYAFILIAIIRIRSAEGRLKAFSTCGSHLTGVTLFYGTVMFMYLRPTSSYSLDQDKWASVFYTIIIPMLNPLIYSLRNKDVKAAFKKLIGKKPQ", "chain of UniProt P48061 (whole entry, looked up)": "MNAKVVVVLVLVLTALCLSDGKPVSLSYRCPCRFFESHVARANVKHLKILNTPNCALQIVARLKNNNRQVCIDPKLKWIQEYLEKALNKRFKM"}
{"Compound": "Nc1ncnc2c1ncn2[C@@H]1O[C@H](COP(=O)(O)OP(=O)(O)OC[C@H]2OC(O)[C@H](O)[C@@H]2O)[C@@H](O)[C@H]1OP(=O)(O)O (stereo partly shown)", "target": "TRPM2 (Nematostella vectensis, UniProt A7T1N0, S478C)", "assay": "agonist", "EC50 [µM]": "0.091 ± 0.003"}
{"Compound": "CC(=O)N[C@@H]1[C@@H](O[C@@H]2O[C@H](C(=O)O)[C@@H](O[C@@H]3O[C@H](CO)[C@@H](OS(=O)(=O)O)[C@H](O[C@@H]4O[C@H](C(=O)O)[C@@H](OS(=O)(=O)O)[C@H](OS(=O)(=O)O)[C@H]4OS(=O)(=O)O)[C@H]3NC(C)=O)[C@H](OS(=O)(=O)O)[C@H]2OS(=O)(=O)O)[C@H](OS(=O)(=O)O)[C@@H](CO)O[C@H]1N=[N+]=[N-]", "target": "CXCL8", "assay": "probe displacement, FP competition", "setting": "protein 800 nM, with: TAMRA-labelled sHA tetramer probe", "EC50 [µM]": "27.1 ± 2.5"}
{"Compound": "CCN(CC)C(CO)c1cccc2c(C)c(C)oc12 (stereo not shown)", "target": "Lysophosphatidic acid receptor 1 (LPAR1, Homo sapiens, UniProt Q92633, W210A)", "assay": "Gi activation, agonist, NanoBiT G-protein dissociation", "system": "HEK293T", "setting": "W210A mutant", "EC50 [µM]": 0.0468}
{"Compound": "CNc1ncnc2c1ncn2C1OC(CO)C(O)C1O (stereo not shown)", "target": "Adenosine receptor A3 (ADORA3, Homo sapiens, UniProt P0DMS8, V169T)", "assay": "G protein activation, agonist", "EC50 [µM]": 0.011}
{"Compound": "C[C@H](CCC(=O)O)[C@H]1CC[C@H]2[C@@H]3CC[C@@H]4C[C@H](OS(=O)(=O)O)CC[C@]4(C)[C@H]3CC[C@]12C", "target": "G-protein coupled receptor 39", "assay": "calcium signal, agonist, fluorescence", "EC50 [µM]": 41}
{"Compound": "CC(C)C[C@H](NC(=O)[C@@H](CC(C)C)NC(=O)CNC(=O)[C@H](C)NC(=O)[C@H](C)NC(=O)[C@H](CCCNC(=N)N)NC(=O)CNC(=O)CCCCNC(=O)CCCCNC(=O)CCCCNC(=O)[C@H](CCCCN)NC(=O)[C@H](Cc1ccc(O)cc1)NC(=O)[C@@H](N)Cc1c[nH]c2ccccc12)C(N)=O", "target": "NPBWR1", "assay": "calcium signal, agonist", "EC50 [µM]": 0.53}
{"Compound": "CC1=C(C(=O)OC(C)C)C(c2ccccc2C)C2=C(CC(C)(C)CC2=O)N1 (stereo not shown)", "target": "ADGRG1", "assay": "G13 activation, agonist, GTPγS binding, reconstitution", "EC50 [µM]": "9.38 ± 0.7"}
{"Compound": "CC(CCC(=O)NCC(=O)O)C1CCC2C3CCC4CC(OS(=O)(=O)O)CCC4(C)C3CC(O)C12C (stereo not shown)", "target": "G-protein coupled receptor 39", "assay": "calcium signal, agonist, fluorescence", "EC50 [µM]": "> 200"}
{"Compound": "O=C1C2=C(CCN(Cc3ccccc3)C2)N2CCN=C2N1Cc1ccc(C(F)(F)F)cc1", "target": "ATP-dependent Clp protease proteolytic subunit (clpP, Staphylococcus aureus, UniProt Q2G036)", "assay": "activator", "EC50 [µM]": 1.4}
{"Compound": "O=C(NC[C@@H](Cc1ccc(F)cc1)N1CCC(O)(C(F)(F)F)CC1)C1(c2ccc(Cl)cc2)CCCC1", "target": "Transient receptor potential cation channel subfamily A member 1 (TRPA1, Homo sapiens, UniProt O75762, I906A)", "EC50 [µM]": 0.049}
{"Compound": "Cn1c(=O)n(C2CCC(=O)NC2=O)c2ccc(C3CCN(CC(=O)Nc4cccc(CS(=O)(=O)N5CC[C@H](Nc6cccc(-c7sc(C(=O)O)c(OCC(=O)O)c7Cl)c6)CC5(C)C)c4)CC3)cc21 (stereo partly shown)", "target": "Tyrosine-protein phosphatase non-receptor type 22 (PTPN22, Homo sapiens, UniProt Q9Y2R2)", "assay": "phosphatase activity", "setting": "with: DiFMUP substrate", "EC50 [µM]": "> 10"}
{"Compound": "CC(=O)N[C@@H]1[C@@H](O[C@@H]2O[C@H](C(=O)O)[C@@H](O[C@@H]3O[C@H](COS(=O)(=O)O)[C@@H](OS(=O)(=O)O)[C@H](O[C@@H]4O[C@H](C(=O)O)[C@@H](OS(=O)(=O)O)[C@H](OS(=O)(=O)O)[C@H]4OS(=O)(=O)O)[C@H]3NC(C)=O)[C@H](OS(=O)(=O)O)[C@H]2OS(=O)(=O)O)[C@H](OS(=O)(=O)O)[C@@H](COS(=O)(=O)O)O[C@H]1N=[N+]=[N-]", "target": "Stromal cell-derived factor 1 (CXCL12, Homo sapiens, UniProt P48061)", "assay": "probe displacement, FP competition", "setting": "protein 388 nM, with: TAMRA-labelled sHA tetramer probe", "EC50 [µM]": "22.7 ± 4.3"}
{"Compound": "C[C@H](CCC(=O)NCC(=O)O)[C@H]1CC[C@H]2[C@@H]3CC[C@@H]4C[C@H](OS(=O)(=O)O)CC[C@]4(C)[C@H]3CC[C@]12C", "target": "GPBAR1", "assay": "agonist", "EC50 [µM]": "> 200"}
{"Compound": "O=C(COc1cccc(Cl)c1Cl)Nc1cc(C2CC2)nn1C1CCOCC1", "target": "Kir3.1/Kir3.2", "assay": "activator, thallium flux", "system": "HEK293", "EC50 [µM]": 0.245}
{"Compound": "CC(C)C[C@H](NC(=O)CNC(=O)[C@H](C)NC(=O)[C@H](C)NC(=O)[C@H](CCCNC(=N)N)NC(=O)CNC(=O)CCCCNC(=O)CCCCNC(=O)CCCCNC(=O)[C@H](C)NC(=O)[C@H](Cc1ccc(O)cc1)NC(=O)[C@@H](N)Cc1c[nH]c2ccccc12)C(=O)N[C@@H](CC(C)C)C(=O)N[C@@H](CO)C(N)=O", "target": "NPBWR1", "assay": "calcium signal, agonist", "EC50 [µM]": 0.478}
{"Compound": "CC(CCC(=O)O)C1CCC2C3C(O)CC4CC(OS(=O)(=O)O)CCC4(C)C3CCC12C (stereo not shown)", "target": "G-protein coupled receptor 39", "assay": "calcium signal, agonist, fluorescence", "EC50 [µM]": "> 200"}
{"Compound": "CC1=C(C(=O)OC2CCCC2)C(c2ccccc2C)C2=C(CC(C)(C)CC2=O)N1 (stereo not shown)", "target": "ADGRG1", "assay": "G13 activation, agonist, GTPγS binding, reconstitution", "EC50 [µM]": "2.15 ± 0.033"}
{"Compound": "CC(CCC(=O)NCCS(=O)(=O)O)C1CCC2C3C(O)CC4CC(OS(=O)(=O)O)CCC4(C)C3CCC12C (stereo not shown)", "target": "GPBAR1", "assay": "agonist", "EC50 [µM]": "> 200"}
{"Compound": "COc1ccc(C(=O)c2c(C(=O)NCCCN(C)C)oc3ccc(Cl)cc3c2=O)cc1OC", "target": "Growth hormone secretagogue receptor type 1 (GHSR, Homo sapiens, UniProt Q92847)", "assay": "Gαi1 dissociation, agonist, TRUPATH BRET", "system": "HEK293T", "EC50 [µM]": 1.58}
{"Compound": "CC(C)Oc1cc(Cl)ccc1CNc1cc(-c2ccccc2)nc2ncnn12", "target": "G-protein coupled receptor 3 (GPR3, Homo sapiens, UniProt P46089, V155A)", "assay": "cAMP level, agonist, cAMP GloSensor", "setting": "V155A mutant", "EC50 [µM]": 0.122}
{"Compound": "CC1=NC(C)C(C)S1 (stereo not shown)", "target": "Olfactory receptor 5AR1 (Or5ar1, Mus musculus, UniProt Q8VGS3)", "assay": "agonist, cAMP luminescence", "system": "HEK293 transfected", "EC50 [µM]": 51.7}
{"Compound": "COc1ccc(C2(C(=O)N3CCC(Nc4nc5ccccc5c(=O)[nH]4)CC3)CC2)cc1", "target": "MRGPRD (Homo sapiens, UniProt Q8TDS7)", "assay": "miniGq recruitment, agonist, BRET1", "system": "HEK293T", "EC50 [µM]": 0.212}
{"Compound": "CC(CCC(=O)O)C1CCC2C3CCC4CC(OS(=O)(=O)O)CCC4(C)C3CC(O)C12C (stereo not shown)", "target": "G-protein coupled receptor 39", "assay": "calcium signal, agonist, fluorescence", "EC50 [µM]": "> 200"}
{"Compound": "CC(C)C[C@H](NC(=O)CNC(=O)[C@H](C)NC(=O)[C@H](C)NC(=O)[C@H](C)NC(=O)CNC(=O)CCCCNC(=O)CCCCNC(=O)CCCCNC(=O)[C@H](CCCCN)NC(=O)[C@H](Cc1ccc(O)cc1)NC(=O)[C@@H](N)Cc1c[nH]c2ccccc12)C(=O)N[C@@H](CC(C)C)C(=O)N[C@@H](CO)C(N)=O", "target": "NPBWR1", "assay": "calcium signal, agonist", "EC50 [µM]": "> 10"}
{"Compound": "CC(CCC(=O)NCC(=O)O)C1CCC2C3C(O)CC4CC(O)CCC4(C)C3CCC12C (stereo not shown)", "target": "GPBAR1", "assay": "agonist", "EC50 [µM]": "6.3 ± 2.5"}
{"Compound": "O=C(Cc1ccc(OCc2ccccc2)cc1)NC1(C(=O)O)CCN(C(=O)c2ccc(-c3cccc(Cl)c3)cc2)CC1", "target": "Muscarinic acetylcholine receptor M2 (CHRM2, Homo sapiens, UniProt P08172)", "assay": "cAMP, agonist, luciferase", "EC50 [µM]": "> 10"}
{"Compound": "CC1CCc2nccnc21 (stereo not shown)", "target": "uncharacterized protein (Puma concolor, UniProt A0A6P6H1F7)", "assay": "cAMP, agonist", "system": "HEK293 transfected with uncharacterized protein", "EC50 [µM]": "1060 ± 420"}
{"Compound": "CC(C)C[C@H](NC(=O)[C@H](CCCN)NC(=O)CNC(=O)[C@@H](NC(=O)[C@H](C)NC(=O)[C@@H]1CSCSC[C@H](NC(=O)CC[C@H](N)C(=O)O)C(=O)N[C@@H](CC(N)=O)C(=O)N[C@@H]([C@@H](C)O)C(=O)N[C@@H](C)C(=O)N[C@@H]([C@@H](C)O)C(=O)N1)[C@@H](C)O)C(=O)N[C@@H](C)C(=O)N[C@@H](CCC(=O)O)C(=O)N[C@@](C)(Cc1ccccc1)C(=O)N[C@@H](CC(C)C)C(=O)N[C@H](C(=O)N[C@@H](CCCNC(=N)N)C(=O)N[C@@H](CO)C(=O)N[C@@H](CO)C(=O)N[C@@H](CC(N)=O)C(=O)N(C)[C@@H](CC(N)=O)C(=O)N[C@@H](Cc1ccccc1)C(=O)NCC(=O)N1CCC[C@H]1C(=O)N[C@@H](CCCCNC(=O)CC[C@H](NC(=O)CC[C@H](NC(=O)CCCCCCCCCCCCCCCCCCC(=O)O)C(=O)O)C(=O)O)C(=O)N[C@@H](CC(C)C)C(=O)N1CCC[C@H]1C(=O)N1CCC[C@H]1C(=O)N[C@H](C(=O)N[C@@H](CCC(=O)O)C(=O)N[C@H](C(=O)NCC(=O)N[C@@H](CO)C(=O)N[C@@H](CC(N)=O)C(=O)N[C@H](C(=O)N[C@@H](Cc1ccc(O)cc1)C(N)=O)[C@@H](C)O)C(C)C)[C@@H](C)O)C(C)C", "target": "Amylin receptor AMY3; CALCR/RAMP3 (Rattus norvegicus, UniProt P32214+Q9JJ73)", "assay": "cAMP, agonist, TR-FRET", "EC50 [µM]": "1.38e-05"}
{"Compound": "CC(=O)N[C@@H]1[C@@H](O[C@@H]2O[C@H](C(=O)O)[C@@H](O[C@@H]3O[C@H](CO)[C@@H](O)[C@H](O[C@@H]4O[C@H](C(=O)O)[C@@H](OS(=O)(=O)O)[C@H](OS(=O)(=O)O)[C@H]4OS(=O)(=O)O)[C@H]3NC(C)=O)[C@H](OS(=O)(=O)O)[C@H]2OS(=O)(=O)O)[C@H](O)[C@@H](CO)O[C@H]1N=[N+]=[N-]", "target": "CXCL8", "assay": "probe displacement, FP competition", "setting": "protein 800 nM, with: TAMRA-labelled sHA tetramer probe", "EC50 [µM]": "140 ± 37.3"}
{"Compound": "CC(CCC(=O)NCC(=O)O)C1CCC2C3CCC4CC(O)CCC4(C)C3CC(O)C12C (stereo not shown)", "target": "GPBAR1", "assay": "agonist", "EC50 [µM]": "1.9 ± 0.7"}
{"Compound": "O=C(COc1cccc(Cl)c1Cl)Nc1cc(C2CC2)nn1CC(F)(F)F", "target": "Kir3.1/Kir3.2", "assay": "activator, thallium flux", "system": "HEK293", "EC50 [µM]": "> 10"}
{"note": "For quick reference, copied from above:"}
{"Compound": "CC(CCC(=O)NCCS(=O)(=O)O)C1CCC2C3C(O)CC4CC(OS(=O)(=O)O)CCC4(C)C3CCC12C (stereo not shown)", "target": "GPBAR1", "assay": "agonist", "EC50 [µM]": "> 200"}
{"Compound": "CC1=NC(C)C(C)S1 (stereo not shown)", "target": "Olfactory receptor 5AR1 (Or5ar1, Mus musculus, UniProt Q8VGS3)", "assay": "agonist, cAMP luminescence", "system": "HEK293 transfected", "EC50 [µM]": 51.7}
{"Compound": "CC(C)C[C@H](NC(=O)CNC(=O)[C@H](C)NC(=O)[C@H](C)NC(=O)[C@H](C)NC(=O)CNC(=O)CCCCNC(=O)CCCCNC(=O)CCCCNC(=O)[C@H](CCCCN)NC(=O)[C@H](Cc1ccc(O)cc1)NC(=O)[C@@H](N)Cc1c[nH]c2ccccc12)C(=O)N[C@@H](CC(C)C)C(=O)N[C@@H](CO)C(N)=O", "target": "NPBWR1", "assay": "calcium signal, agonist", "EC50 [µM]": "> 10"}
{"Compound": "O=C1C2=C(CCN(Cc3ccccc3)C2)N2CCN=C2N1Cc1ccc(C(F)(F)F)cc1", "target": "ATP-dependent Clp protease proteolytic subunit (clpP, Staphylococcus aureus, UniProt Q2G036)", "assay": "activator", "EC50 [µM]": 1.4}
